Assay results collected from several papers.
Compare with care: the assays were run in different laboratories. Several values in a cell are separate wells, animals, samples, runs or records. ± gives the spread as reported.
Genome polyprotein NS3 helicase domain: Genome polyprotein, NS3 helicase domain (Hepatitis C virus genotype 1b, UniProt Q9WMX2)
Chain of UniProt P07948 (whole entry, looked up): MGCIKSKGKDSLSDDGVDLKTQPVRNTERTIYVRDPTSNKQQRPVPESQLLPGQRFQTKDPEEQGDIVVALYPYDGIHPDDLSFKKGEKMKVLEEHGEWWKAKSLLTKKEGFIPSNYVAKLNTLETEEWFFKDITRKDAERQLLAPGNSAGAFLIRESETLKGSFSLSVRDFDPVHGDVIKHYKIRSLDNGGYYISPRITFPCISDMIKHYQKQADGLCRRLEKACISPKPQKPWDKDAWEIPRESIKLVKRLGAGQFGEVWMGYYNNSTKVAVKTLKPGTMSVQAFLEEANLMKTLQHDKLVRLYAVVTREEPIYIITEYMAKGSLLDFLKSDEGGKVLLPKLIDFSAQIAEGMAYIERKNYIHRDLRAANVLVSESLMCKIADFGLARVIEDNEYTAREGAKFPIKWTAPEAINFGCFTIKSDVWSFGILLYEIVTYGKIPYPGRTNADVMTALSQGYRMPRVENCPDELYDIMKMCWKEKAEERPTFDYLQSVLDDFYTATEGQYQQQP
Chain of UniProt O15264 (whole entry, looked up): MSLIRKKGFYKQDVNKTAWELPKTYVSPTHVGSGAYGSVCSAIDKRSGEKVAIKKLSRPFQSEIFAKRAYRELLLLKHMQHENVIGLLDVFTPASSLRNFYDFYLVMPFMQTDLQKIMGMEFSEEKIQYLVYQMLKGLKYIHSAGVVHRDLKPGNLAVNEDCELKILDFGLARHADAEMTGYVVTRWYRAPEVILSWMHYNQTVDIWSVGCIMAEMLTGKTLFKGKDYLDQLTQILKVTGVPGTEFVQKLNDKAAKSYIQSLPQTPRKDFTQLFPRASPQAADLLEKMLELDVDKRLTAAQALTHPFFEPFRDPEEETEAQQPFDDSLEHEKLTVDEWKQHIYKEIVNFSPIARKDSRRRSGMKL
Chain of UniProt P32247 (whole entry, looked up): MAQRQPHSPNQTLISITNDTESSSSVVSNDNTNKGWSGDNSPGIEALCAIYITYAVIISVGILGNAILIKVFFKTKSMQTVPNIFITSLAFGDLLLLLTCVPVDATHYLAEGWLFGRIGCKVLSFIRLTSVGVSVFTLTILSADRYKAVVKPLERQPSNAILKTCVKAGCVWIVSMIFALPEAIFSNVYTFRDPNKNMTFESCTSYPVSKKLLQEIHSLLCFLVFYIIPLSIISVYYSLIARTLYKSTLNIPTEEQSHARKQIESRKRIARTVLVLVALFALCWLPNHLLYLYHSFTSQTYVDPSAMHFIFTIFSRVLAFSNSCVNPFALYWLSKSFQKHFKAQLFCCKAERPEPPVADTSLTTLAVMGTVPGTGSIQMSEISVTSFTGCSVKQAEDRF
Chain of UniProt P06493 (whole entry, looked up): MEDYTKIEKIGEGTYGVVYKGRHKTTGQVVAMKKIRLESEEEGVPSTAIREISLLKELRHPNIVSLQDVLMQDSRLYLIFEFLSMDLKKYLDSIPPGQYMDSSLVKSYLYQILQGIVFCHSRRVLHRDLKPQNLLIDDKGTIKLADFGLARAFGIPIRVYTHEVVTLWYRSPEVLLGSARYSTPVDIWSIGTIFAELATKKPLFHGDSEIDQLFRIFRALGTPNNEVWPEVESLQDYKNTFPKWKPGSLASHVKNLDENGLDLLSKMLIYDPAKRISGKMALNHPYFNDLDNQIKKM
Chain of UniProt P47898 (whole entry, looked up): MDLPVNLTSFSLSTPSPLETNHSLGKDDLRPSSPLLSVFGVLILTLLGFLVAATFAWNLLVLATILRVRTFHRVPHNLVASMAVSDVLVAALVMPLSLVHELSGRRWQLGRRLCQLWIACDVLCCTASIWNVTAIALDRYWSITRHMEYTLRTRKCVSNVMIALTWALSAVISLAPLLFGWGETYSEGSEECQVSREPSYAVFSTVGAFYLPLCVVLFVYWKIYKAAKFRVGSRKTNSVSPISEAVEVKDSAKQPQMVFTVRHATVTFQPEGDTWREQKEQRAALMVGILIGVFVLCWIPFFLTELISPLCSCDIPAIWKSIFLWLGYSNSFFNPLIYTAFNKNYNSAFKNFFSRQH

Compound = CN1CCN(c2cc(-c3ccncc3)c(-c3ccc4ccccc4c3)nn2)CC1; target = PROKR2 (Homo sapiens, UniProt Q8NFJ6); test = antagonist, FLIPR; conditions = 10 µM; inhibition = 40.1%
Compound = COc1cc(Nc2ncc(F)c(Nc3ccc4c(n3)NC(=O)C(C)(C)O4)n2)cc(OC)c1OC; target = CAMKK1 (Homo sapiens, UniProt Q8N5S9); test = KINOMEscan; conditions = 10 µM; inhibition = 38%
Compound = CN1CC[C@@]2(C)c3cc(O)ccc3N(C)[C@@H]12.O=C(O)/C=C/C(=O)O; target = Genome polyprotein NS3 helicase domain; test = DNA binding, inhibitor; system = hepatitis C virus; conditions = 100 µM, with: Cy5-dT15 DNA; inhibition = 1%
Compound = Cc1ncc(C)n2nc(/C=C/c3nc(N4CCCC4)cc(N4CCOCC4)n3)nc12; target = Xanthine dehydrogenase/oxidase, oxidase form (XDH, Bos taurus, UniProt P80457); test = enzyme activity; conditions = 10 µM; inhibition = 5%
Compound = O=C([O-])/C=C/C(O)c1ccc(Cl)cc1.[Na+] (centres unmarked); target = Genome polyprotein NS3 helicase domain; test = DNA binding, inhibitor; system = hepatitis C virus; conditions = 100 µM, with: Cy5-dT15 DNA; inhibition = 1%
Compound = CC(C)N1CCC[C@H]1CNC(=O)c1cn(C2CCCC2)c(=O)c2c1c1ccccc1n2C; target = phorbol ester receptor (mouse); test = radioligand binding; conditions = 10 µM; inhibition = 2%
Compound = CC(C)[C@H]1CN[C@H](C(=O)O)[C@H]1CC(=O)O; target = Genome polyprotein NS3 helicase domain; test = DNA binding, inhibitor; system = hepatitis C virus; conditions = 100 µM, with: Cy5-dT15 DNA; inhibition = 1%
Compound = CN(CCN1CCC(OC(=O)Nc2ccccc2-c2ccccc2)CC1)C(=O)c1ccc(CN2CCC(C(N)=O)CC2)cc1; target = rat kainate receptor; test = radioligand binding; conditions = 1 µM, with: [3H]kainic acid 5.0 nM; inhibition = 0%
Compound = C[C@H](C(=O)N[C@H]1COc2ccccc2[C@@H]1S(C)(=O)=O)c1ccc(F)cc1; target = Cyclin-dependent kinase 1, with cyclin B1 (CDK1, Homo sapiens, UniProt P06493); test = enzyme activity; conditions = 10 µM, Eurofins selectivity panel; inhibition = -17%
Compound = O=c1ccc2ccccc2o1; target = EDNRA (Homo sapiens, UniProt P25101); test = agonist radioligand binding; conditions = 10 µM, SafetyScreen44; inhibition = 6.47%
Compound = FC(F)(F)c1cccc(Nc2nc(NCCOc3ccccc3)nc3[nH]cnc23)c1; target = MAPK13 (Homo sapiens, UniProt O15264); test = enzyme activity, inhibitor, Thermo Fisher kinase screening; conditions = 5 µM; inhibition = 8% and 5%
Compound = NNC(=O)c1ccc(O)cc1; target = Genome polyprotein NS3 helicase domain; test = DNA binding, inhibitor; system = hepatitis C virus; conditions = 100 µM, with: Cy5-dT15 DNA; inhibition = 1%
Compound = O=C(O)c1cc[c]([Hg][Cl])cc1; target = Trypanothione synthetase (Leishmania infantum, UniProt A4I2Z3); test = enzyme activity; conditions = 25 µM; inhibition = 1.6 ± 14.1%
Compound = O=[N+]([O-])c1cc(O)c(O)c([N+](=O)[O-])c1; target = Genome polyprotein NS3 helicase domain; test = DNA binding, inhibitor; system = hepatitis C virus; conditions = 100 µM, with: Cy5-dT15 DNA; inhibition = 1%
Compound = Cn1cc(-c2cc(F)cc(N3CCn4c(cc5c4CCCC5)C3=O)c2CO)cc(Nc2ccc(N3CCN(C4COC4)CC3)cn2)c1=O; target = Tyrosine-protein kinase Lyn, isoform B (LYN, Homo sapiens, UniProt P07948); test = kinase activity, inhibitor, SelectScreen kinase profiling; conditions = 0.1 µM, with: ATP at apparent Km; inhibition = 14%
Compound = O=C(Nc1cccnn1)N1CCC(=Cc2cccc(Oc3ccc(C(F)(F)F)cn3)c2)CC1; target = ADRA2B (Homo sapiens, UniProt P18089); test = binding; conditions = 50 µM, with: [3H]rauwolscine; inhibition = 47%
Compound = N#C/C(=C\c1ccc(O)c(O)c1)C(N)=S; target = Genome polyprotein NS3 helicase domain; test = DNA binding, inhibitor; system = hepatitis C virus; conditions = 100 µM, with: Cy5-dT15 DNA; inhibition = 3%
Compound = CN(C(=O)n1cnc(-c2ccc[n+]([O-])c2)c1)C1CCCCC1; target = BRS3 (Homo sapiens, UniProt P32247); test = radioligand binding; conditions = 50 µM; inhibition = 1%
Compound = C#Cc1n[nH]c2c(-c3cn([C@@H](C)c4ccccc4)c(=O)[nH]c3=O)cc(F)cc12; target = LYN (Homo sapiens, UniProt P07948); test = kinase activity, inhibitor; conditions = 100 nM; inhibition = 0.7%
Compound = CC1=NN=C(c2ccc(N)cc2)c2cc3c(cc2C1)OCO3.Cl; target = Genome polyprotein NS3 helicase domain; test = DNA binding, inhibitor; system = hepatitis C virus; conditions = 100 µM, with: Cy5-dT15 DNA; inhibition = 3%
Compound = C[C@H](CCC(=O)O)[C@H]1CC[C@H]2[C@@H]3[C@@H](O)C[C@@H]4C[C@H](O)CC[C@]4(C)[C@H]3CC[C@]12C; target = Gag polyprotein, nucleocapsid protein p7 (gag, Human immunodeficiency virus type 1 group M subtype B, UniProt P04591); test = NCp7-RNA binding, AlphaScreen; system = HIV-1; conditions = 45 µM; inhibition = > 50%
Compound = O=C(Nc1cccnn1)N1CCN([C@@H]2CCOc3cc(C(F)(F)F)ccc32)CC1; target = PTAFR (Homo sapiens, UniProt P25105); test = binding; conditions = 20 µM; inhibition = 84%
Compound = Cn1cccc1-c1cccnc1; target = HTR5A (Homo sapiens, UniProt P47898); test = binding; conditions = 50 µM; inhibition = 1.6%
Compound = CC[C@H](C)[C@H](NC(=O)[C@@H](NC(=O)[C@H](N)Cc1ccccc1)C(C)C)C(=O)N[C@@H](C)C(N)=O; target = APP (Homo sapiens, UniProt P05067); test = amyloid-beta aggregation, thioflavin T fluorescence; conditions = 0.5 µM, 96 h, with: 2 µM amyloid-beta; inhibition = 69.2%
Compound = CN(N=O)c1ccc(O)c(O)c1; target = Genome polyprotein NS3 helicase domain; test = DNA binding, inhibitor; system = hepatitis C virus; conditions = 100 µM, with: Cy5-dT15 DNA; inhibition = 27%
Compound = CC(=O)NC[C@H]1[C@H](O)[C@H](O)[C@@H]2[C@H](O)C[C@@H](CO)N21; target = Spodoptera litura β-N-acetylglucosaminidase; system = crude enzyme; conditions = 0.00157 µM, run 1, with: p-nitrophenyl GlcNAc; inhibition = 13.1%
Compound = O=C(Nc1cnccc1Cl)N1CCN(Cc2ccc3c(c2)OC(F)(F)O3)CC1; target = PHKG2 (Homo sapiens, UniProt P15735); test = kinase activity, inhibitor; conditions = 10 µM, human; inhibition = -2%
Compound = COC(=O)c1ccc(C(=O)OC)c(NC(=O)CN2CCN(C(=O)COc3cccc4ccccc34)CC2)c1; target = uncharacterized protein (Erigeron canadensis, UniProt A0A8M0FGR5); test = enzyme activity; conditions = 100 mg/L; inhibition = > 30%
Compound = COc1ccc(N2C(=O)N(c3c(C)cccc3Cl)Cc3cnc(Nc4ccc(C5CCN(C)CC5)cc4OC)nc32)nc1; target = IKBKB (Homo sapiens, UniProt O14920); test = kinase activity, inhibitor; conditions = 0.5 µM, kinase IKK-BETA; inhibition = 3.68%

A few entries again:
Compound = O=C(O)c1cc[c]([Hg][Cl])cc1; target = Trypanothione synthetase (Leishmania infantum, UniProt A4I2Z3); test = enzyme activity; conditions = 25 µM; inhibition = 1.6 ± 14.1%
Compound = C#Cc1n[nH]c2c(-c3cn([C@@H](C)c4ccccc4)c(=O)[nH]c3=O)cc(F)cc12; target = LYN (Homo sapiens, UniProt P07948); test = kinase activity, inhibitor; conditions = 100 nM; inhibition = 0.7%
Compound = COc1cc(Nc2ncc(F)c(Nc3ccc4c(n3)NC(=O)C(C)(C)O4)n2)cc(OC)c1OC; target = CAMKK1 (Homo sapiens, UniProt Q8N5S9); test = KINOMEscan; conditions = 10 µM; inhibition = 38%
Compound = CC(C)[C@H]1CN[C@H](C(=O)O)[C@H]1CC(=O)O; target = Genome polyprotein NS3 helicase domain; test = DNA binding, inhibitor; system = hepatitis C virus; conditions = 100 µM, with: Cy5-dT15 DNA; inhibition = 1%
Compound = O=C(Nc1cnccc1Cl)N1CCN(Cc2ccc3c(c2)OC(F)(F)O3)CC1; target = PHKG2 (Homo sapiens, UniProt P15735); test = kinase activity, inhibitor; conditions = 10 µM, human; inhibition = -2%
